{"data": "Published values collected from several papers", "CASP7": "Caspase-7 (CASP7, Homo sapiens, UniProt P55210)", "note": "Values joined by “and” are separate records of one study, mostly repeats; a detail may differ. Numbers after ± are the reported error."}
{"Compound": "CC(=O)N[C@@H](Cc1c[nH]c2ccccc12)C(=O)N[C@@H](CCC(=O)O)C(=O)N[C@@H](Cc1c[nH]cn1)C(=O)N[C@@H](CC(=O)O)C(=O)COC(=O)c1c(C)cccc1C", "target": "CASP7", "test": "enzyme activity, inhibitor", "quantity": "kinact/KI", "result": "13300 M⁻¹ s⁻¹"}
{"Compound": "O=C1CCC(N2C(=O)c3cccc4c(Cc5cnn(C6CCN(C(=O)C7(O)CCC7)CC6)c5)ccc2c34)C(=O)N1 (centres unmarked)", "target": "Cereblon/Ikaros (Homo sapiens, UniProt Q13422+Q96SW2)", "test": "protein level, degrader, western blot", "test system": "NCI-H929", "conditions": "100 pM, 4 h", "quantity": "remaining activity", "result": "64.6%"}
{"Compound": "CC(C)(C(=O)N1CCC(Nc2nc3c(c(=O)[nH]2)CCCC3)CC1)c1ccc(Cl)cc1", "target": "MRGPRD (Homo sapiens, UniProt Q8TDS7, Q182A)", "test": "miniGq recruitment, agonist, BRET", "test system": "HEK293T", "conditions": "Q182A mutant", "quantity": "Hill slope", "result": 0.91}
{"Compound": "CCCCCC=CC=C1C(=O)C=CC1CC=CCCCC(=O)O (centres unmarked)", "target": "MOB4 (Homo sapiens, UniProt Q9Y3A3)", "test": "competitive isoTOP-ABPP", "test system": "proteome, soluble, MDA-MB-231", "conditions": "100 µM, 60 min, together with: iodoacetamide probe", "scale": "relative to: DMSO over compound-treated, higher = stronger cysteine blockade", "quantity": "isoTOP-ABPP competition ratio", "result": 5.4}
{"Compound": "Nc1ccc(CNC(=O)c2cc(-c3ccccc3)n(-c3ccccc3)n2)cc1", "target": "Genome polyprotein, NS2B-NS3 protease (dengue virus type 2, UniProt P29990)", "test": "enzyme activity, fluorogenic AMC substrate", "conditions": "50 µM", "quantity": "inhibition", "result": "11%"}
{"Compound": "CC[C@H](C)[C@H](NC(C)=O)C(=O)N[C@@H](CCC(=O)O)C(=O)N[C@H](C(=O)N[C@@H](CC(=O)O)C(=O)COC(=O)c1c(C)cccc1C)[C@@H](C)O", "target": "CASP7", "test": "enzyme activity, inhibitor", "quantity": "kinact/KI", "result": "26300 M⁻¹ s⁻¹"}
{"Compound": "O=c1[nH]c(=O)c2nc(O)cnc2[nH]1", "target": "lumazine dehydrogenase, Cupriavidus sp. LA-1", "conditions": "pH 7.5", "quantity": "Km", "result": "17.5 ± 2.2 µM"}
{"Compound": "CC(C)(C#N)c1ccc(-c2cnc(Nc3cnccn3)nc2Cl)cc1", "target": "human kinase panel", "test": "binding, KINOMEscan", "conditions": "10000 nM, %Ctrl below 1", "quantity": "number of kinases hit", "result": 0}
{"Compound": "COC(=O)Cc1cc2c(cc1C(=O)c1ccccc1Cl)OCO2", "target": "Glutamate receptor 2 (Gria2, Rattus norvegicus, UniProt P19491)", "test": "glutamate-evoked current, whole-cell patch clamp", "test system": "HEK-293T", "conditions": "concentration not given, pH 7.4, holding potential -60 mV, together with: 10 mM glutamate", "quantity": "current amplitude", "result": "552 ± 39 pA"}
{"Compound": "C=CC(=O)N1CCCC(n2c(=O)c3ncccc3n(Cc3ccc(Oc4ccccc4)cc3)c2=O)C1 (centres unmarked)", "target": "T-complex protein 1 subunit theta (CCT8, Homo sapiens, UniProt P50990)", "test": "thermal proteome profiling", "test system": "cell proteome", "conditions": "treated", "quantity": "melting temperature", "result": "51.1 °C and 50.3 °C"}
{"Compound": "CN(C)c1ccc2c(c1)C(=O)N(CCc1ccc(S(N)(=O)=O)cc1)C2=O", "target": "Carbonic anhydrase 2 (CA2, Bos taurus, UniProt P00921)", "test": "binding", "quantity": "emission maximum", "result": "539 nm"}
{"Compound": "CCCCCCCCCCCCCCCC(=O)NCCCC[C@H](NC(=O)[C@H](CCC(=O)O)NC(=O)[C@H](Cc1ccc(O)cc1)NC(=O)[C@H](CCC(=O)O)NC(=O)COCC(=O)NCCCOCCOCCOCCCNC(=O)[C@H](Cc1c[nH]c2ccccc12)NC(=O)[C@H](CCCCN)NC(=O)[C@H](C)NC(=O)[C@H](CCCCNC(=N)N)NC(=O)[C@H](CCC(N)=O)NC(=O)[C@H](Cc1c[nH]cn1)NC(=O)[C@H](CCSC)NC(=O)[C@H](CC(C)C)NC(=O)[C@H](CCC(N)=O)NC(=O)[C@@H](NC(=O)[C@H](CCC(=O)O)NC(=O)C(C)(C)NC(=O)[C@@H](NC(=O)C(C)(C)N)C(C)C)[C@@H](C)CC)C(=O)N[C@@H](CCC(=O)O)C(=O)N[C@@H](Cc1ccc(O)cc1)C(=O)N[C@@H](CCC(=O)O)C(N)=O", "target": "Parathyroid hormone/parathyroid hormone-related peptide receptor (PTH1R, Homo sapiens, UniProt Q03431)", "test": "agonist", "test system": "Saos-2 with cAMP reporter", "conditions": "10 pM, 90 min, washout after 30 min ligand", "scale": "higher = more cAMP", "quantity": "cAMP luminescence AUC", "result": "140 a.u."}
{"Compound": "CC(C)[C@@H]1NC(=O)[C@H](Cc2ccccc2)NC(=O)CSC[C@@H](C(N)=O)NC(=O)[C@H](CCC(=O)O)NC(=O)[C@H](CO)NC(=O)[C@H](Cc2c[nH]c3cccc(Cl)c23)NC(=O)[C@H](C2CCCCC2)NC(=O)[C@H](C(C)C)NC(=O)[C@H](Cc2ccc(O)cc2)NC(=O)[C@H](CC(=O)O)NC(=O)[C@H](Cc2c[nH]c3ccccc23)NC(=O)[C@H](Cc2ccc(N)nc2)NC(=O)[C@H](Cc2c[nH]c3ccc(Cl)cc23)NC(=O)[C@H](CCC(=O)O)NC1=O", "target": "Interleukin-1 receptor-like 2 (IL1RL2, Homo sapiens, UniProt Q9HB29)", "test": "reporter gene (SEAP), inhibitor, HEK-Blue IL-36R reporter", "test system": "HEK-Blue IL-36R cells", "conditions": "1.23 µM, 6 h, together with: IL-36γ 3 ng/mL", "quantity": "remaining activity", "result": "79.6%"}
{"Compound": "Cc1ccc(NC(=O)c2nn(C)c(=O)c3ccccc23)nc1", "target": "human kinase panel", "test": "binding, KINOMEscan", "conditions": "10000 nM, %Ctrl below 1", "quantity": "number of kinases hit", "result": 0}
